Experimental data from different studies.
Every numbered part comes from another study and shows a few of its results, in no order. Positions count from the first letter of the parent shown.

Set 1
Target: Interferon regulatory factor 3, full length, phosphomimetic (IRF3, Homo sapiens, UniProt Q14653, residues 1-427, S386D/S396D/S398D/S402D/T404D/S405D)
Technique: protein-binding microarray
Molecule type: double-stranded DNA, one strand shown
Medium: in vitro
Concentration: 2540 nM top
Notes: 60-bp whole probe
Together with: salmon DNA 0.4 mg/ml
Baseline: random background probes
Reading: higher = stronger binding
Constant ends, left off below: GCCTAGCAC … GTCTTGATTCGCTTGACGCTGCTG
Residues (chain): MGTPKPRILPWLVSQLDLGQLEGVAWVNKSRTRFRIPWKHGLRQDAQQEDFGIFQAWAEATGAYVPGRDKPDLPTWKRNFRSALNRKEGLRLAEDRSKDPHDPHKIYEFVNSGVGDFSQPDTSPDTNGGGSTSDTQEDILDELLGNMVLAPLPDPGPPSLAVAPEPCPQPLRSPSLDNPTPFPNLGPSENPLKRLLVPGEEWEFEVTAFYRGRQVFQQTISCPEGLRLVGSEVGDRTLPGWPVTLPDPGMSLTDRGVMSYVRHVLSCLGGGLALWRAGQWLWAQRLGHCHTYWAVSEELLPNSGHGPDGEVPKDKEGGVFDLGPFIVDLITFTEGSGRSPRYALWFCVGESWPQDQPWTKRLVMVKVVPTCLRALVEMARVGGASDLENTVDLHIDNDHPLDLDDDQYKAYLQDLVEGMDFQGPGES
Strand | fitted relative affinity [z-score]
GACGGTATCGGGTAACGGGACGTGCTA | 1.28
TGTGGGTTTCGGTGTGGGAGGTGCTAG | 4.03
TTAAGACTGGGTTTCGGTTAGTGCTAG | 3.2
TGCCCCCACACTCCTAGCACGTGCTAG | -0.114
GAAGGACTGGACTTTCGGGACGTGCTA | -0.0522
TTAGAACAGAGTATCGATTAGTGCTAG | 0.243
TTAGGACTGGGACTGGGTTCGTGCTAG | -1.05
TCAATTTTCATTAACTGACTGTGCTAG | 0.965
GACGGTATCGGACTGGGGACGTGCTAG | 1.54
TTAGGTTTCGACATTCGGTTAGTGCTA | 3.1
TCAGAATTCAGAATGGGACTGTGCTAG | 0.513
TTAGGACTGCACTATCGGTTAGTGCTA | -0.142
GACGGTATCTGGTATCGGGACGTGCTA | 1.08
TAATTTCCATTTTCTAAATTCGTGCTA | 6.86
GACGAACTGAGTATCGAGACGTGCTAG | 0.0494
TCAGTTTTCTTTTCCATTTTGTGCTAG | 7.55
TACGGTTTCGGTTCCGGGACGTGCTAG | 10.2
GTAGGTTCCGGTTTCGGTTAGTGCTAG | 8.16
ACCATTGTGGTTTTCATTATGTGCTAG | 1.62
CTAGGACTGCTACTGCTTTAGTGCTAG | -0.631
TCATTTTTGCAAGCTAAAACTGTGCTA | 1.13
TTATATCTCAGTATCGATTAGTGCTAG | 1.37
TTAGAGATCAGTATCGATTAGTGCTAG | 1.56
GGCTGTTTGATCTTGATCCTGTGCTAG | -0.141
TCCCATTCTGAATTCGAATGGTGCTAG | 2.74

Set 2
Target: CCNA2, cyclin fold, Cln2 fusion (human)
Technique: yeast growth competition, sequencing
Medium: yeast
Notes: strong parent motif
Baseline: not given
Reading: higher = stronger binding
Starting sequence: SAMHD1 docking peptide (human); ASKSRVQLFKDDP; partner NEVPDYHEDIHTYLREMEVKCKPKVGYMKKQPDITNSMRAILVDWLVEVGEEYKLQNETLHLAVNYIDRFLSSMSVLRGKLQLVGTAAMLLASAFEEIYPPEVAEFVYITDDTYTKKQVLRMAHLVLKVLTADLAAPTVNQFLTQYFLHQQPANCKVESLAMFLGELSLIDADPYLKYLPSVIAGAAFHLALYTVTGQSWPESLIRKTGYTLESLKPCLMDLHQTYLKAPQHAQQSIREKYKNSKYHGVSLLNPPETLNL
Variant | normalised enrichment score
F9N | 0.381
Q7S | 0.876
D11P | 2.58
K10L | 1.85
S2G | 2.95
R5S | 0.0404
K10D | 1.13
R5I | 1.02
D11S | 2.26
D12P | 2.81
Q7W | 0.53
D12Y | 3.59
K3N | 1.45
Q7D | -0.034
F9L | 0.363
F9I | 0.576
V6R | 6.41
D12Q | 2.76
D11M | 1.89
V6N | 0.259
L8A | -0.211
R5Y | 0.256
S2V | 3.58
F9Q | 0.0969
Q7K | 2.5

Set 3
Target: RNA binding protein fox-1 homolog 2, RRM domain, GST-SBP tag (RBFOX2, Homo sapiens, UniProt O43251-10, residues 100-194)
Technique: RNA Bind-n-Seq
Molecule type: RNA
Medium: in vitro
Concentration: 365 nM
Notes: natural RNA segment, single round, ends assumed
Baseline: no-protein control
Reading: higher = stronger binding
Constant ends, left off below: GGGAGUUCUACAGUCCGACGAUC … UGGAAUUCUCGGGUGCCAA
Target sequence (chain): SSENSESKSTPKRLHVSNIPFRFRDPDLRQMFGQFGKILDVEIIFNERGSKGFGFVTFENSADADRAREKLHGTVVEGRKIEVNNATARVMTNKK
Strand | RBNS enrichment (R)
UUGUCCUCUCCUUGUCCCUUCAUCUUGGCUGGGCACAGUAUAUGAGUCCCCACGUGGUCGAGUCUGGAUCUGUAAAACUCUUCUGAUAAUGGCAAUACUUUAGGGCAGAG | 0.81
UCUUUGUCCUCCCUCUGCCCAGAUUUUGAUGUAGUCUAAUUGACAUCCUUCUCUUCCCAACUUUUGUGUGAUCUUUUAGGAAAAAAAAUAAAUAUUUUUAACAUUAAAGC | 0.683
UGGCCACAGACAGUUUCAAGUAGUGUCAGAUUUUUGUUGCUUGGGCGGCUGUUGGUAGAGUGGGCAGUGCCCGCGCCAUGGGGUGCUCUGUGGGCUUCUCCAGGAGCAGG | 0.531
GUUACAAUAGAUAGUGUCAUGUUGCAGGUUCAACGUUAUUUACAUGUAAAUAGACAAAAGGAAACAUUUGCCAAAAGCGGCAGAUCUUUACUGAAAGAGAGAGCAGCUGU | 0.47
UGAAGCAGCCAGGGUCUCCUUGCCCUGGCCUUGGCCUUCCCUAGACUGUGUGGGGCUCAGCAUUGGGAGGGGUUGCACAUGUCCCAGCCUUUGGCCCCCUUACUUUUCAG | 2.49
CUAGCUAUCACUUCCUGAGUGUCUCAUGUAGCCACUCAGGCUCCCAGGAGUUUCCUGAGGUAGGUUAGUAGGGUCACGUGAAUGCCUCACUAUGACAUGACUUGAGUCCA | 0.278
UUUUGAGGAAAAGUCAAAUUCAUUGUUUAUUUUUAUAUUAUUUUUAAGUUAUCUGAACAAAUACUUUUGAAAAAAAAGUUUGUUGUAUAGUCAAAACAAAUCGGUGCCAC | 0.68
GAAUCAAUGAGUGAGAAUACUAGUACUGAUUCUUUACAAUAAUAAUAUCUUAAGAGUAUUGAUAUCUUUCAUUUUUUCAUCCAGCAGUCUAGUGCCCAGCUGCUGACAAU | 0.416
UUGCCUUCCUGGAGUAAAUAUUGGCACAGAUUUCAUUUGAGAGAACUCAGCCCCCUGGUCUAAGCUGGACUUACCUCUGUGGAUUCUGAAAUUAAAGAAGUGAGUUGCUA | 2.14
UACCCUUUGCCUGCAGGUCAGUUGUAAUAAAUCUAGGUUGUGAUGAUGGUCUUGUAAUCUGAUUUUCUGCAGUCAUACCCCGAGAAAGAAAUUCAAGAAAAAAUGACAUU | 1.35
UGGACCUGGAAUAUCCCUUAUUGCCUAUAAUGGAAUAUGUGACACUGUGGGUGAAAUGUUCUACACACCACACACUAGGCCAUUUUCAGAUCAGCAGUCACCCAUCGCUU | 0.557
GAAGUUCUUAACUGUUAAAAAGUUACUUUUGACUUUGCUAGAUAAGGAGGCGAACCCAAGUGUGUGUCUCCUCUGAAUGUCUCAGAACUCAGUUGUGAAGGAGCAGGAGG | 0.483

Set 4
Target: Prothrombin, mature alpha-thrombin (F2, Homo sapiens, UniProt P00734)
Technique: aptamer microarray, sandwich
Molecule type: DNA with 2'F-ANA
Medium: in vitro
Concentration: 200 nM
Notes: whole 15-mer aptamer, many near background
Together with: Cy3 exosite-II aptamer, 400 nM
Reading: higher = stronger binding
Strand: GGTTGGTGTGGTTGG
Modification | mean fluorescence intensity [a.u.]
2'F-ANA at 1 2 3 4 5 9 10 11 12 14 15 | 54
2'F-ANA at 1 3 6 9 13 | 174
2'F-ANA at 2 3 4 11 12 14 | 381
2'F-ANA at 1 5 6 7 8 10 15 | 50.4
2'F-ANA at 1 2 3 5 9 10 11 13 15 | 47.8
2'F-ANA at 3 7 9 11 12 13 15 | 1160
2'F-ANA at 1 2 3 5 6 9 11 12 14 15 | 48.2
2'F-ANA at 3 5 7 8 9 12 15 | 253
2'F-ANA at 3 7 15 | 1150
2'F-ANA at 1 2 4 10 12 14 | 49.4
2'F-ANA at 2 4 6 7 10 | 94.7
2'F-ANA at 1 2 5 6 9 11 13 | 52.8
2'F-ANA at 3 4 7 10 11 12 14 | 249
2'F-ANA at 1 2 4 5 6 8 10 11 12 14 15 | 75.7
2'F-ANA at 1 2 4 6 11 | 225
2'F-ANA at 1 7 8 14 | 68.2
2'F-ANA at 1 2 3 4 6 7 9 10 13 14 15 | 57.2
2'F-ANA at 3 4 8 9 10 11 15 | 259
2'F-ANA at 1 2 7 8 10 11 12 14 15 | 48.4
2'F-ANA at 1 3 4 5 9 10 11 12 15 | 53.9
2'F-ANA at 1 4 5 8 9 10 11 13 | 68.3
2'F-ANA at 5 6 7 13 14 | 48.8
2'F-ANA at 1 2 5 7 10 11 13 14 | 46.5
2'F-ANA at 1 2 3 4 9 10 11 12 14 | 50.3
2'F-ANA at 1 2 5 9 11 12 13 15 | 67.1
